{"data": "Experimental data gathered from unrelated publications", "note": "A part holds a random share of what one study measured. ± marks the error that the study gave.", "UniProt P10721, sequence (whole entry, unmodified, looked up)": "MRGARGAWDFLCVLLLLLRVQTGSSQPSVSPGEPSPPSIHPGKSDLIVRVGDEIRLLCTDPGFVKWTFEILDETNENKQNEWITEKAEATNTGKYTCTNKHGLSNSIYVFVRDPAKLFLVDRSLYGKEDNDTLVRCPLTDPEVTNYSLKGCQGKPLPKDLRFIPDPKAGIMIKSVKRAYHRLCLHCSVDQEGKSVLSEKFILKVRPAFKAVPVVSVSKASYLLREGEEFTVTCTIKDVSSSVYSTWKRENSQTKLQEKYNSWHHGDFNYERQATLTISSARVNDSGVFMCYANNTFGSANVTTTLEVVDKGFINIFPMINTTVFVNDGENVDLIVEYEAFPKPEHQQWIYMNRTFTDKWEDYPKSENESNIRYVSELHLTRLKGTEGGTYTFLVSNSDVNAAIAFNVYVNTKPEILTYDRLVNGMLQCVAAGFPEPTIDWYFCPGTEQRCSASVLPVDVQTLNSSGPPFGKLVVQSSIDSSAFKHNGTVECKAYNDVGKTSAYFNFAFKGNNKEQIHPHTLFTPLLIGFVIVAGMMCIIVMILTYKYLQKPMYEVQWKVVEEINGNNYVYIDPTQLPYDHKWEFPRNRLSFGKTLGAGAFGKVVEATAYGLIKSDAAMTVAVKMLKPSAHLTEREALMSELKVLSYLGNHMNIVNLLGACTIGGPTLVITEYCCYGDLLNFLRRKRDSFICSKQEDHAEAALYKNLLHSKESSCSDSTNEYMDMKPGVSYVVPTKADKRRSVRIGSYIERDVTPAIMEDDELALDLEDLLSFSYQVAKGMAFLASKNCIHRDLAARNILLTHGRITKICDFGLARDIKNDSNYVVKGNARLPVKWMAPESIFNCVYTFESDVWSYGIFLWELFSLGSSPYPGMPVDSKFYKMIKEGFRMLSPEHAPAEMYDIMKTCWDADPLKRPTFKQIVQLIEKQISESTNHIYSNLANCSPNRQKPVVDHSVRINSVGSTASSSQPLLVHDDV", "UniProt Q15759, sequence (whole entry, looked up)": "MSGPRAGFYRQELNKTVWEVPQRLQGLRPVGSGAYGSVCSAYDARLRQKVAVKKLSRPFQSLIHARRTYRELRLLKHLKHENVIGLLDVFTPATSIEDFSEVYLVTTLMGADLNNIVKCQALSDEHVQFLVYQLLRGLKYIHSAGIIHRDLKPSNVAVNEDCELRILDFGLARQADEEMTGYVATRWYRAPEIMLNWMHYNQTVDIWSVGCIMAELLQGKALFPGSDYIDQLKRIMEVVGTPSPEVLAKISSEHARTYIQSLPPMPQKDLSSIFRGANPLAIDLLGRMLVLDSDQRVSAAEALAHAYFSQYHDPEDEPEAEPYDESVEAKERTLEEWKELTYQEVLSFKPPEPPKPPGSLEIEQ", "UniProt Q8N5S9, sequence (whole entry, looked up)": "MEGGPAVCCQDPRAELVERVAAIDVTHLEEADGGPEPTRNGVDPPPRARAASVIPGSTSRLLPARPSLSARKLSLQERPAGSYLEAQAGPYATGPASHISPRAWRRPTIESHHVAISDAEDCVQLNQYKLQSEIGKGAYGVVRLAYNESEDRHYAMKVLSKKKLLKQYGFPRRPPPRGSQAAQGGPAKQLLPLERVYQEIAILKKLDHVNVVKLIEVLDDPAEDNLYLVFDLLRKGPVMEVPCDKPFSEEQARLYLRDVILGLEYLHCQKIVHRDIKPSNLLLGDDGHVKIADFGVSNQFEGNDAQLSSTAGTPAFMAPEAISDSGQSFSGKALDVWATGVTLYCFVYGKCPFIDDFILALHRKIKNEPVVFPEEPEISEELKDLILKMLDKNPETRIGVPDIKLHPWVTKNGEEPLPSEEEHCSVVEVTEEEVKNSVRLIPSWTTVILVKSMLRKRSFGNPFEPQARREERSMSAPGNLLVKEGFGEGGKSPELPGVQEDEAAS", "UniProt P37173, sequence (whole entry, looked up)": "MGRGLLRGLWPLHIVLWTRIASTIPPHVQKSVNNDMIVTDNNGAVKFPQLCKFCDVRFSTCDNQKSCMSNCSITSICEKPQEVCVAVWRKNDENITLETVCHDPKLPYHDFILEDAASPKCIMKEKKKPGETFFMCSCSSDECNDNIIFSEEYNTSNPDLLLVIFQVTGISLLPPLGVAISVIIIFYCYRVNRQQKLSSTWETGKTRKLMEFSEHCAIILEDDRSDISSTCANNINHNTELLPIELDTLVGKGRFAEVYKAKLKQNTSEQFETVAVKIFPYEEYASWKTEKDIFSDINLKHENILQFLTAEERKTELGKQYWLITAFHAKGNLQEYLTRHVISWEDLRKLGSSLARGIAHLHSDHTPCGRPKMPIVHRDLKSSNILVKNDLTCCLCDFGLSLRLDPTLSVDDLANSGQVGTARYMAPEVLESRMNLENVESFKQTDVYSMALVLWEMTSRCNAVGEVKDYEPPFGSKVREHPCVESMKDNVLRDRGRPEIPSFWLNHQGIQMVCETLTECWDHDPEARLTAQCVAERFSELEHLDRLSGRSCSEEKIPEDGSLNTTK", "UniProt Q86UX6, sequence (whole entry, looked up)": "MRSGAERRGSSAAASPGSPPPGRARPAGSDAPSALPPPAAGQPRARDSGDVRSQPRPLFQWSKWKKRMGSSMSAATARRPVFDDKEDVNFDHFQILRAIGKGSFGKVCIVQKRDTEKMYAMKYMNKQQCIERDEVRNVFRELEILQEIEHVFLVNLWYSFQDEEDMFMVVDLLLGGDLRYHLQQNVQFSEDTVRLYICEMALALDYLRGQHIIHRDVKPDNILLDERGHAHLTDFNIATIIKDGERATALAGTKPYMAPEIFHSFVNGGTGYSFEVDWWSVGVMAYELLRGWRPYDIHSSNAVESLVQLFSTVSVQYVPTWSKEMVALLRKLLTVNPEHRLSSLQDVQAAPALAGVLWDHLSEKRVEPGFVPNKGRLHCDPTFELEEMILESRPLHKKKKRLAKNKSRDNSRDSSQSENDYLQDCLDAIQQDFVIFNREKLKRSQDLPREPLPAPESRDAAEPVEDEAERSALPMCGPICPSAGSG"}
{"data": "Block 1", "SMILES": "CC[C@@]1(c2cccc(-c3c(F)cncc3OC)c2)C2=C(Nc3n[nH]cc31)[C@H](F)C(C)(C)CC2=O (single isomer, unassigned)", "tested at": "1 µM"}
{"target": "PTK2B (Homo sapiens, UniProt Q14289)", "effect on": "binding", "method": "competition with immobilised ligand", "remaining binding [%]": 74}
{"target": "KIT (Homo sapiens, UniProt P10721, L576P)", "effect on": "binding", "method": "competition with immobilised ligand", "remaining binding [%]": 100}
{"target": "HCK (Homo sapiens, UniProt P08631)", "effect on": "binding", "method": "competition with immobilised ligand", "remaining binding [%]": 71}
{"target": "CDPK1 (Plasmodium falciparum, UniProt P62344)", "effect on": "kinase binding", "method": "KINOMEscan", "baseline": "DMSO control", "remaining binding [%]": 61}
{"target": "STK32C (Homo sapiens, UniProt Q86UX6)", "effect on": "binding", "method": "competition with immobilised ligand", "remaining binding [%]": 97}
{"target": "KIT (Homo sapiens, UniProt P10721, A829P)", "effect on": "binding", "method": "competition with immobilised ligand", "remaining binding [%]": 56}
{"target": "EGFR (Homo sapiens, UniProt P00533, L858R)", "effect on": "kinase binding", "method": "KINOMEscan", "baseline": "DMSO control", "remaining binding [%]": 100}
{"target": "CAMKK1 (Homo sapiens, UniProt Q8N5S9)", "effect on": "binding", "method": "competition with immobilised ligand", "remaining binding [%]": 93}
{"target": "TGFBR2 (Homo sapiens, UniProt P37173)", "effect on": "binding", "method": "competition with immobilised ligand", "remaining binding [%]": 100}
{"target": "GAK (Homo sapiens, UniProt O14976)", "effect on": "kinase binding", "method": "KINOMEscan", "baseline": "DMSO control", "remaining binding [%]": 95}
{"target": "MAPK11 (Homo sapiens, UniProt Q15759)", "effect on": "binding", "method": "competition with immobilised ligand", "remaining binding [%]": 79}
{"target": "DDR2 (Homo sapiens, UniProt Q16832)", "effect on": "kinase binding", "method": "KINOMEscan", "baseline": "DMSO control", "remaining binding [%]": 54}
{"data": "Block 2", "SMILES": "C[C@@H]1CN(c2ccc(-c3cc(C(=O)NCCOCCOCCOCCOCCNC(=O)Cn4cc(-c5[nH]cc(C(=O)N[C@@H](CC(N)=O)c6ccc(F)c(Cl)c6)c5-c5ccc(Cl)cc5F)cn4)ccc3F)cc2NC(=O)c2c[nH]c(=O)cc2C(F)(F)F)C[C@H](C)N1C", "effect on": "thermal unfolding", "method": "differential scanning fluorimetry", "tested at": "5.5 µM", "direction": "higher = more unfolded", "WDR5": "WD repeat-containing protein 5 (WDR5, Homo sapiens, UniProt P61964)", "DCAF1": "DDB1- and CUL4-associated factor 1 (DCAF1, Homo sapiens, UniProt Q9Y4B6)", "UniProt Q9Y4B6, sequence (whole entry, looked up)": "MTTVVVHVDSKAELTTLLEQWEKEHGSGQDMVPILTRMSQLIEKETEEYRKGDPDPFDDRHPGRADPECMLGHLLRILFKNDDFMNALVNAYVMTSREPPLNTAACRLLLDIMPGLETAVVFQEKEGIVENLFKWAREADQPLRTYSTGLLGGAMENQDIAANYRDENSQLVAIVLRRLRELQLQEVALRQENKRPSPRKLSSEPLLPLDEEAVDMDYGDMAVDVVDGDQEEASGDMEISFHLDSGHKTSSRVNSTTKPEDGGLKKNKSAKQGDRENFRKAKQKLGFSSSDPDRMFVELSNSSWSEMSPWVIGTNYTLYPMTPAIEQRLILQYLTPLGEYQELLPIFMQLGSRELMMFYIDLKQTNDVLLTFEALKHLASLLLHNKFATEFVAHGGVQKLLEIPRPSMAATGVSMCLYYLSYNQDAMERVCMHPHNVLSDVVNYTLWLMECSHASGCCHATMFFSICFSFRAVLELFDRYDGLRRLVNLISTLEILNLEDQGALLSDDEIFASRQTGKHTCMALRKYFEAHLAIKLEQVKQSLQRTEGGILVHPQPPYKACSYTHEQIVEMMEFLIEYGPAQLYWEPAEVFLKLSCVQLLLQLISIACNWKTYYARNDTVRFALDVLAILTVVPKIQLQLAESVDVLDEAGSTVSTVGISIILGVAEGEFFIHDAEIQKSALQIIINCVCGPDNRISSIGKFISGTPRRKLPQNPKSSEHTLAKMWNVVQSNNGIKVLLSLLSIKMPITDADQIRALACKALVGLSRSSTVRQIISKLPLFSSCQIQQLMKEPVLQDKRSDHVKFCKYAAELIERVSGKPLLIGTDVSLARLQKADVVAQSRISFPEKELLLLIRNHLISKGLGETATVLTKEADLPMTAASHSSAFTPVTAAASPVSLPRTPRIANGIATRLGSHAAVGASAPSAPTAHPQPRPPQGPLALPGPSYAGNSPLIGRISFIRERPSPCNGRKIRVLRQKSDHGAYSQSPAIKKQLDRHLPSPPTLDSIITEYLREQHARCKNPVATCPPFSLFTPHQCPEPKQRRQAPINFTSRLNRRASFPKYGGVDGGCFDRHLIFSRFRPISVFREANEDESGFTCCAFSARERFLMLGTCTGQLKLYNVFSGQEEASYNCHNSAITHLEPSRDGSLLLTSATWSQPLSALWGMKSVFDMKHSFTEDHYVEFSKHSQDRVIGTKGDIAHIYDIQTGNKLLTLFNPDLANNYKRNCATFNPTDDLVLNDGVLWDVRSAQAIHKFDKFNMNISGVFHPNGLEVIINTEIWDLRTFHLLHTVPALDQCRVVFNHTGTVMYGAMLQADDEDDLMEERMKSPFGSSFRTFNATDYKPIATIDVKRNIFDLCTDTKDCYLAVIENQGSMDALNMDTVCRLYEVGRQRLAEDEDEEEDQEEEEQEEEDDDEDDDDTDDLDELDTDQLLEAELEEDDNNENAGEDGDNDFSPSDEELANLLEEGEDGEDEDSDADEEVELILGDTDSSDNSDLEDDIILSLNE"}
{"target": "WDR5", "temperature": "89.41 °C", "SYPRO Orange fluorescence": "43500 a.u."}
{"target": "DCAF1", "temperature": "36.2 °C", "SYPRO Orange fluorescence": "9250 a.u."}
{"target": "WDR5", "temperature": "84.81 °C", "SYPRO Orange fluorescence": "38900 a.u."}
{"target": "WDR5", "temperature": "70.61 °C", "SYPRO Orange fluorescence": "7070 a.u."}
{"target": "DCAF1", "temperature": "55.61 °C", "SYPRO Orange fluorescence": "20800 a.u."}
{"target": "DCAF1", "temperature": "72.61 °C", "SYPRO Orange fluorescence": "51800 a.u."}
{"target": "DCAF1", "temperature": "32 °C", "SYPRO Orange fluorescence": "8240 a.u."}
{"data": "Block 3", "Compound": "Cc1ccc(O)c(C)c1-c1cnc2[nH]c(-c3cnc(N4CCC5(CC4)CC(N4CCN(c6ccc(N[C@H]7CCC(=O)NC7=O)cc6F)CC4)CO5)nc3)cc2c1C#N (single isomer, unassigned)"}
{"target": "WEE1", "method": "KINOMEscan", "tested at": "1000 nM", "baseline": "control", "remaining binding [%]": 91}
{"target": "PIK4CB", "method": "KINOMEscan", "tested at": "1000 nM", "baseline": "control", "remaining binding [%]": 96}
{"target": "CSNK2A2", "method": "KINOMEscan", "tested at": "1000 nM", "baseline": "control", "remaining binding [%]": 47}
{"target": "CSF1R", "method": "KINOMEscan", "tested at": "1000 nM", "baseline": "control", "remaining binding [%]": 49}
{"target": "LCK", "method": "KINOMEscan", "tested at": "1000 nM", "baseline": "control", "remaining binding [%]": 97}
{"target": "MKNK2", "method": "KINOMEscan", "tested at": "1000 nM", "baseline": "control", "remaining binding [%]": 81}
{"target": "CASK", "method": "KINOMEscan", "tested at": "1000 nM", "baseline": "control", "remaining binding [%]": 45}
{"target": "BRAF (Homo sapiens, UniProt P15056, V600E)", "effect on": "binding", "method": "competition with immobilised ligand", "tested at": "1 µM", "remaining binding [%]": 20}
{"target": "PKMYT1", "method": "KINOMEscan", "tested at": "1000 nM", "baseline": "control", "remaining binding [%]": 0}
{"data": "Block 4", "target": "Sodium-dependent neutral amino acid transporter B(0)AT1 (SLC6A19, Homo sapiens, UniProt Q695T7)", "action": "inhibitor", "method": "FLIPR membrane potential", "cell line": "CHO-BC cells", "tested at": "30 µM", "notes": "30 µM cinromide as 0%", "added": "1.5 mM L-leucine", "baseline": "uninhibited cells", "UniProt Q695T7, sequence (whole entry, looked up)": "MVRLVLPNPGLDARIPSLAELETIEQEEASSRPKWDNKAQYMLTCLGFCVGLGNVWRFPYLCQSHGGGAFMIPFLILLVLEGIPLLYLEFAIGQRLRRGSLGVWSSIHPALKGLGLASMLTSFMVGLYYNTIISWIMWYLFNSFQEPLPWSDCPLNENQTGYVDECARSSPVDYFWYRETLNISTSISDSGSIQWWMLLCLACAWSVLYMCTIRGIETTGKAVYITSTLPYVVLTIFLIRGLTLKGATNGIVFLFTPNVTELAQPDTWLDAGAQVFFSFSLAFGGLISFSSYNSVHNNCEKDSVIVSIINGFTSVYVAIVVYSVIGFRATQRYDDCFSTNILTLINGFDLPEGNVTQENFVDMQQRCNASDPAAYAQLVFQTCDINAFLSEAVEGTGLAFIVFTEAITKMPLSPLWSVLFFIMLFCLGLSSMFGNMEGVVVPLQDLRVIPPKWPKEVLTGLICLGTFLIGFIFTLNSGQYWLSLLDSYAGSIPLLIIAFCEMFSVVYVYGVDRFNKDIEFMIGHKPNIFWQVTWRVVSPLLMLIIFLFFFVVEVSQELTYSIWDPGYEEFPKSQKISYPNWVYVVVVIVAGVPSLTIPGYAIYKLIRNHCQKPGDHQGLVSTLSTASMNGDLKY"}
{"SMILES": "CC(C)NC(=O)COc1ccc(I)cc1", "remaining activity": "9 ± 2%"}
{"SMILES": "CCCCCCNC(=O)COc1cc(C)c(Cl)c(C)c1", "remaining activity": "110 ± 8%"}
{"SMILES": "Cc1cc(OCC(=O)NCCCO)cc(C)c1Cl", "remaining activity": "103 ± 10%"}
{"SMILES": "Cc1cc(OCC(=O)NC(C)C)ccc1Br", "remaining activity": "-3 ± 1%"}
{"SMILES": "Cc1cc(OCC(=O)NCC(C)C)cc(C)c1Cl", "remaining activity": "84 ± 11%"}
{"SMILES": "Cc1cc(OCC(=O)NCCO)cc(C)c1Cl", "remaining activity": "109 ± 10%"}
{"SMILES": "CC(C)NC(=O)COC(c1ccccc1)c1ccccc1", "remaining activity": "82 ± 11%"}
{"SMILES": "CNC(=O)COc1cc(C)c(Cl)c(C)c1", "remaining activity": "44 ± 6%"}
{"SMILES": "Cc1cc(OCC(=O)NCCc2ccccc2)cc(C)c1Cl", "remaining activity": "95 ± 6%"}
{"SMILES": "CCCNC(=O)COc1cc(C)c(Cl)c(C)c1", "remaining activity": "11 ± 2%"}
{"SMILES": "Cc1cc(NCC(=O)NC(C)C)cc(C)c1I", "remaining activity": "-3 ± 2%"}
{"SMILES": "CC(C)NC(=O)CSc1ccc(Cl)cc1", "remaining activity": "10 ± 4%"}
{"SMILES": "Cc1cc(OCC(=O)SC(C)C)cc(C)c1Cl", "remaining activity": "131 ± 10%"}
{"SMILES": "Cc1cc(OCC(=O)NC(C)C)ccc1I", "remaining activity": "-3 ± 1%"}
{"SMILES": "Cc1cc(OCC(=O)NO)cc(C)c1Cl", "remaining activity": "90 ± 10%"}
{"SMILES": "CC(C)NC(=O)COc1ccc(Br)cc1", "remaining activity": "21 ± 2%"}
{"note": "A few entries again (block 2):"}
{"target": "WDR5", "temperature": "84.81 °C", "SYPRO Orange fluorescence": "38900 a.u."}
{"target": "WDR5", "temperature": "70.61 °C", "SYPRO Orange fluorescence": "7070 a.u."}
{"target": "WDR5", "temperature": "89.41 °C", "SYPRO Orange fluorescence": "43500 a.u."}
{"target": "DCAF1", "temperature": "55.61 °C", "SYPRO Orange fluorescence": "20800 a.u."}
